# Measured values from different studies.
# Lines come from different studies, so protocols differ. ± marks the error that the study gave.
Structure (SMILES),assay,system,conditions,AUC(0-t)
Cl.Cn1c(=O)n(CCCCN2CCC3(CC2)OCc2ccccc23)c2ccccc21,,"rat, male, brain","iv, 10 mg/kg, up to 24 h",3040 ± 267 ng·h/g
CC(=O)O[C@H]1C=C[C@H]2[C@H]3Cc4ccc(O)c5c4[C@@]2(CCN3C)[C@H]1O5,LC-MS/MS,"male Sprague-Dawley rat, whole blood","intraperitoneal, 10 mg/kg of heroin, up to 180 min",1.14 ± 0.165 µg·h/mL
C#Cc1ccc2c(c1)C(c1ccccn1)=NCc1c(-c3cnco3)ncn1-2,,"Sprague Dawley rat, plasma","oral, 2 mg/kg, 0 to 24 h, cassette dosing",2.16 µg·h/mL
CC(C)[C@@H](CN1CC[C@@](C)(c2cccc(O)c2)[C@@H](C)C1)NC(=O)[C@@H]1Cc2ccc(O)cc2CN1C,,"rat, plasma","ip, 5 mg/kg, to 168 h",1.1 µg·h/mL
C=CC[N+]1([C@H]2C[C@H]3[C@@H]4CC[C@H]5C[C@H](O)[C@@H](N6CCOCC6)C[C@]5(C)[C@H]4CC[C@]3(C)[C@H]2OC(C)=O)CCCC1,,"Sprague Dawley rat, plasma","intravenous, dose not given, added: sugammadex 5 mg/kg IV",0.0397 µg·h/mL
CN1[C@H]2CC[C@@H]1[C@@H](C(=O)O)[C@@H](OC(=O)c1ccccc1)C2,LC-MS/MS,"Sprague-Dawley rat, whole blood","intraperitoneal, 20 mg/kg of cocaine, up to 180 min",5.01 ± 0.19 µg·h/mL
Cc1cc(C)nc(Nc2ncc(C(=O)NCCc3c(C)[nH]c4ccccc34)cn2)c1,,"male rat, plasma","oral, 1000 mg/kg/day, day 7",32.3 µg·h/mL
CCC[C@@](N)(CO)CCc1ccc(OCCCCCC(C)C)cc1,,"male Sprague-Dawley rat, plasma","intravenous, dose not given",1770 nM·h
CC(=O)c1c([O-])cc(C)oc1=O.[Na+],,"Wistar rat, male, serum","oral, 200 mg/kg, no CYP inhibitor",2790 ± 132 µg·h/mL
COC(=O)[C@H]1[C@@H](OC(=O)c2ccccc2)C[C@@H]2CC[C@H]1N2,LC-MS/MS,"Sprague-Dawley rat, whole blood","intraperitoneal, 20 mg/kg of cocaine, up to 180 min",0.108 ± 0.00667 µg·h/mL
Cc1ccc(S(=O)(=O)Nc2c(N[C@H]3CC[C@H](NC(=O)Nc4ccc(F)c(Cl)c4)CC3)c(=O)c2=O)cc1,,"rat, plasma","intravenous, 10 mg/kg",1840 nM·h
